Results from different studies.
Compare with care: the assays were run in different laboratories. Values joined by “and” are separate records of one study, mostly repeats; a detail may differ. Numbers after ± are the reported error.
HLA class I histocompatibility antigen, A alpha chain allele A*02:01: HLA class I histocompatibility antigen, A alpha chain, allele A*02:01 (Homo sapiens, UniProt P04439)
Sequence of UniProt P63096 (whole entry, looked up): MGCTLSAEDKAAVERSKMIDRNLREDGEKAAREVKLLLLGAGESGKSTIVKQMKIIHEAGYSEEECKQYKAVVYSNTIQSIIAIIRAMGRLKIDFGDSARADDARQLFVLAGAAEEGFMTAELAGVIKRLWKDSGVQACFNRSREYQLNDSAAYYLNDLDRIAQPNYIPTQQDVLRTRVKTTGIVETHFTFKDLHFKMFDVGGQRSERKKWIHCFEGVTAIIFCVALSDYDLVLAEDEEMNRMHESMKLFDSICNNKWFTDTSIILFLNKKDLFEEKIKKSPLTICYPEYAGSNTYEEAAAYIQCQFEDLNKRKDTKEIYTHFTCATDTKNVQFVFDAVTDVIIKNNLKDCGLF
Sequence of UniProt P35372 (whole entry, looked up): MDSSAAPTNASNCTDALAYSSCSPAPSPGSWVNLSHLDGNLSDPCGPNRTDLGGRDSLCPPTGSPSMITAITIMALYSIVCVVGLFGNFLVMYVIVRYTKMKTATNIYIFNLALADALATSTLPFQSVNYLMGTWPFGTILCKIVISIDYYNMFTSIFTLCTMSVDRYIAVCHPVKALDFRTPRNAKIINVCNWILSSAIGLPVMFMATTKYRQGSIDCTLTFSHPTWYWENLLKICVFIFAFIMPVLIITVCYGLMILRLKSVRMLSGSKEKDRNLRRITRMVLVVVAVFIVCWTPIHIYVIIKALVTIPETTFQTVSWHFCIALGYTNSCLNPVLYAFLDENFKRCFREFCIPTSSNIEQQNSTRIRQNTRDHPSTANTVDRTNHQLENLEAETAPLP
Sequence of UniProt Q9P0L9 (whole entry, unmodified, looked up): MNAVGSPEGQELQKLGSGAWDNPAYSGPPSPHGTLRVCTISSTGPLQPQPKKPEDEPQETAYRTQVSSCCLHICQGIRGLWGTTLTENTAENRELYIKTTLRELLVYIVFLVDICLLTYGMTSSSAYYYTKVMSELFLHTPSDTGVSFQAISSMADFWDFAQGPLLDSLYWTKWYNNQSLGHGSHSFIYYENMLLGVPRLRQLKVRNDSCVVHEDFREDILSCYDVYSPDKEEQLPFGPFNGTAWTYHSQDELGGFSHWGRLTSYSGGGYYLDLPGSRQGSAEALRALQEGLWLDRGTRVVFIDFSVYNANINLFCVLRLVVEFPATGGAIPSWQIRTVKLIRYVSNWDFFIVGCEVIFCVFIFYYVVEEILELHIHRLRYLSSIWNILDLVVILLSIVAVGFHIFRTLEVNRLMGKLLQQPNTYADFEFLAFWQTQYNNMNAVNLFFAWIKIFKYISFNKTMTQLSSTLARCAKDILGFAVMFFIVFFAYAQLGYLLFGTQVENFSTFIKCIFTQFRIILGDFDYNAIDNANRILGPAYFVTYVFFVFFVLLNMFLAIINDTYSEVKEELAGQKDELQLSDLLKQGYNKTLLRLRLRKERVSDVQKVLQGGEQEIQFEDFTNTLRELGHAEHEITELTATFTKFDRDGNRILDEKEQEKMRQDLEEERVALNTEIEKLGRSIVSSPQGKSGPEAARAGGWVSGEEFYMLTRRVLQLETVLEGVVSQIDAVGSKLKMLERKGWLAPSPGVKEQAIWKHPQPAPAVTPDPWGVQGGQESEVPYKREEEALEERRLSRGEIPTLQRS
Sequence of UniProt P04035 (whole entry, looked up): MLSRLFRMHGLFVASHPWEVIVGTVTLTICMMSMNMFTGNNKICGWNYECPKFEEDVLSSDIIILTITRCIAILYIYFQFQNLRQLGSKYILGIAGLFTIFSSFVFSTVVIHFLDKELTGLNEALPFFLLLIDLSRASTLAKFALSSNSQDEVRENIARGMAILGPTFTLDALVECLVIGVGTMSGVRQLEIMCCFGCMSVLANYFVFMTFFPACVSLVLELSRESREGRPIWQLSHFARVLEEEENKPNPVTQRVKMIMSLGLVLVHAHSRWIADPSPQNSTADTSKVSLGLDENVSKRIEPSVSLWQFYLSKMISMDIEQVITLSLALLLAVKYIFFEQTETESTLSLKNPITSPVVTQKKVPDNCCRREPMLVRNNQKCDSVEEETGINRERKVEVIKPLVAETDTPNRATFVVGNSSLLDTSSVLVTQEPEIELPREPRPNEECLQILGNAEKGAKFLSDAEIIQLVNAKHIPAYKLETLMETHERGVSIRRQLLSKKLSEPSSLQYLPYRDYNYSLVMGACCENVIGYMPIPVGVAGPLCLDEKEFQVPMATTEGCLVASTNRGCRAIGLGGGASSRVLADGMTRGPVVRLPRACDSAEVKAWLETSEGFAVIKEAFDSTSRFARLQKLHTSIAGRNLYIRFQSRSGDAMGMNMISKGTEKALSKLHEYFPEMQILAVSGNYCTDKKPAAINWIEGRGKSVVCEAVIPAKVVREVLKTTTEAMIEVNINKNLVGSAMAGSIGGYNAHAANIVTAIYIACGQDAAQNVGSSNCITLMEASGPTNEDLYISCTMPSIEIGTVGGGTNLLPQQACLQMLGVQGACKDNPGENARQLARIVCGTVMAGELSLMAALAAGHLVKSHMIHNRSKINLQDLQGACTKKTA
Sequence of UniProt P41595 (whole entry, looked up): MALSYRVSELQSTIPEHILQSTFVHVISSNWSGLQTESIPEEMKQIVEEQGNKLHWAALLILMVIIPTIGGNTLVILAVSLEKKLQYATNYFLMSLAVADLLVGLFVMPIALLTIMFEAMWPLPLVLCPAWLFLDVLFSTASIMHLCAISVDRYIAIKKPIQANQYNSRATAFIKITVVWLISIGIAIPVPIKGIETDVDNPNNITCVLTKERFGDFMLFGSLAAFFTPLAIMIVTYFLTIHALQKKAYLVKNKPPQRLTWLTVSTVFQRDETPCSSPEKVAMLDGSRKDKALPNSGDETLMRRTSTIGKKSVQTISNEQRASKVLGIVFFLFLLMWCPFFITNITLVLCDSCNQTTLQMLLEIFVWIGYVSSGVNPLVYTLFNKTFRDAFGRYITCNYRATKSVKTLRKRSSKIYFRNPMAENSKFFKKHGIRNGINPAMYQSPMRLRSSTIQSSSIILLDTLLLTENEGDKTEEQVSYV
Sequence of UniProt P08684 (whole entry, looked up): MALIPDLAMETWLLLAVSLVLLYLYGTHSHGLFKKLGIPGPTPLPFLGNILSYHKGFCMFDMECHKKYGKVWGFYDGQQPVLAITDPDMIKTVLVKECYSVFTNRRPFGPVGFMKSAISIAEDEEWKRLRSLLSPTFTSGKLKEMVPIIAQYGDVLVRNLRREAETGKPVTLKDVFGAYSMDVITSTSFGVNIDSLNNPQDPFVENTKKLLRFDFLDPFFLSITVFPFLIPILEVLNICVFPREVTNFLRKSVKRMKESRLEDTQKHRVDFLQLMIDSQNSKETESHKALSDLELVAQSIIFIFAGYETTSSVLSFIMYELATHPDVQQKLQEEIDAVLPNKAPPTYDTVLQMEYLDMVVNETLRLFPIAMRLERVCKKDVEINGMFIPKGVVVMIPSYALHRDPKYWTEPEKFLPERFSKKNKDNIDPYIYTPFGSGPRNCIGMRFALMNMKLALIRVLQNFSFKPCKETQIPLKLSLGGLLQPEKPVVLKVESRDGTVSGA
Sequence of UniProt P42866 (whole entry, looked up): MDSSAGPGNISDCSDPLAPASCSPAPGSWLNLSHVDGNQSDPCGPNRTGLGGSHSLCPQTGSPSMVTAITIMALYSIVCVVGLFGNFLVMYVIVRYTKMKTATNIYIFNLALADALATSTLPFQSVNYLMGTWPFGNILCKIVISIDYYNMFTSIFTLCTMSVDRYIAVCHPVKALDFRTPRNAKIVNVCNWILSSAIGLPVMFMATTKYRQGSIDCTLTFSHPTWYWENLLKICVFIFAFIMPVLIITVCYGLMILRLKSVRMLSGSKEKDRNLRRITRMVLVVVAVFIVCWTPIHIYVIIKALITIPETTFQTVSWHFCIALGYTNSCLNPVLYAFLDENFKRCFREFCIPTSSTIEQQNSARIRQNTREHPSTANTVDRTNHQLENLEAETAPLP

Nc1nc2c(ncn2[C@@H]2O[C@H](COP(=O)(O)OP(O)(O)=S)[C@@H](O)[C@H]2O)c(=O)[nH]1 gave an IC50 of 37 nM and 51.4 nM and 41.2 nM (OPRM1/GNAI1 (Homo sapiens, UniProt P35372+P63096); MOR-Gi coupling; HEK293F; ratio 1:7).
CSCC[C@H](NC(=O)[C@H](Cc1c[nH]cn1)NC(=O)[C@H](Cc1ccccc1)NC(=O)[C@@H]1CCCN1C(=O)[C@H](CCCCN)NC(=O)[C@H](CCC(=O)O)NC(=O)[C@H](Cc1c[nH]c2ccccc12)NC(=O)[C@H](CC(C)C)NC(=O)[C@@H](N)CCCNC(=N)N)C(=O)O gave an IC50 of 992 nM (HLA class I histocompatibility antigen, A alpha chain allele A*02:01; binding).
With O=C(C1CCCCC1)N1CCN(S(=O)(=O)c2cccc3cnccc23)CC1 the IC50 was 1300 nM (Cytochrome P450 3A4 (CYP3A4, Homo sapiens, UniProt P08684); enzyme activity, inhibitor; human liver microsomes; with: midazolam).
CCCCOc1cc(C(=O)NCCN(CC)CC)c2ccccc2n1 gave an IC50 of 10500 nM (PKD2L1 (Homo sapiens, UniProt Q9P0L9, F549L); ion current, inhibitor; F549L).
CSCC[C@H](NC(=O)[C@@H](N)Cc1ccc(O)cc1)C(=O)N[C@@H](Cc1ccc(O)cc1)C(=O)N[C@H](C(=O)N[C@@H](CCCCN)C(=O)N[C@@H](Cc1ccccc1)C(=O)N[C@@H](Cc1c[nH]cn1)C(=O)N[C@H](C(=O)N[C@@H](Cc1ccc(O)cc1)C(=O)O)[C@@H](C)O)[C@@H](C)O gave an IC50 of 5210 nM (HLA class I histocompatibility antigen, A alpha chain, allele A*24:02 (Homo sapiens, UniProt P04439); binding).
C=CCN1CC[C@]23c4c5ccc(O)c4OC2C(NC(=O)c2cccc(I)c2)CC[C@@]3(O)[C@H]1C5 (stereo partly shown) has an EC50 of 1.4 ± 0.3 nM (Oprm1 (Mus musculus, UniProt P42866)).
With CNC(C)Cc1ccc2c(c1)OCO2 (stereo not shown) the EC50 was 598 nM (HTR2B (Homo sapiens, UniProt P41595); agonist).
For CCCNCC(O)COc1ccccc1C(=O)CCc1ccccc1 (stereo not shown), the IC50 was 1000 nM (PKD2L1 (Homo sapiens, UniProt Q9P0L9, F514A); ion current).
CC[C@H](C)[C@H](NC(=O)[C@@H]1CCCN1C(=O)[C@H](CC(=O)O)NC(=O)[C@H](CCSC)NC(=O)[C@@H](N)Cc1ccc(O)cc1)C(=O)N1CCC[C@H]1C(=O)N[C@@H](Cc1c[nH]cn1)C(=O)N[C@@H](CCC(N)=O)C(=O)N[C@@H](Cc1ccc(O)cc1)C(=O)O has an IC50 of 1240 nM (HLA class I histocompatibility antigen, A alpha chain allele A*02:01; binding).
With COc1cc(Nc2ncc(F)c(Nc3ccc4c(n3)NC(=O)C(C)(C)O4)n2)cc(OC)c1OC the IC50 was over 10000 nM (HMGCR (Homo sapiens, UniProt P04035)).

A few entries again:
CCCCOc1cc(C(=O)NCCN(CC)CC)c2ccccc2n1 gave an IC50 of 10500 nM (PKD2L1 (Homo sapiens, UniProt Q9P0L9, F549L); ion current, inhibitor; F549L).
